Measured values collected from several papers.
Each numbered part is a random draw from the data of one study; scales do not carry over between parts. Substitutions count along the parent as printed.

Set 1
Target: Prothrombin, mature alpha-thrombin (F2, Homo sapiens, UniProt P00734)
Technique: aptamer microarray, sandwich
Form: DNA with 2'F-ANA
Matrix: in vitro
Concentration: 200 nM
Setting: whole 15-mer aptamer, many near background
Added: Cy3 exosite-II aptamer, 400 nM
Reading: higher = stronger binding
Sequence: GGTTGGTGTGGTTGG
Modification | mean fluorescence intensity
2'F-ANA at 3 4 5 6 10 12 15 | 100 a.u.
2'F-ANA at 3 5 6 9 11 12 13 15 | 127 a.u.
2'F-ANA at 5 9 10 13 14 15 | 44.9 a.u.
2'F-ANA at 1 3 8 10 12 13 | 111 a.u.
2'F-ANA at 4 6 8 9 11 12 15 | 362 a.u.
2'F-ANA at 3 5 6 7 11 13 | 78 a.u.
2'F-ANA at 1 3 7 8 11 14 | 104 a.u.
2'F-ANA at 2 7 12 | 824 a.u.

Set 2
Target: Sal-like protein 4, full length isoform A (SALL4, Homo sapiens, UniProt Q9UJQ4, residues 1-1053)
Sequence of UniProt Q9UJQ4 (whole entry, looked up): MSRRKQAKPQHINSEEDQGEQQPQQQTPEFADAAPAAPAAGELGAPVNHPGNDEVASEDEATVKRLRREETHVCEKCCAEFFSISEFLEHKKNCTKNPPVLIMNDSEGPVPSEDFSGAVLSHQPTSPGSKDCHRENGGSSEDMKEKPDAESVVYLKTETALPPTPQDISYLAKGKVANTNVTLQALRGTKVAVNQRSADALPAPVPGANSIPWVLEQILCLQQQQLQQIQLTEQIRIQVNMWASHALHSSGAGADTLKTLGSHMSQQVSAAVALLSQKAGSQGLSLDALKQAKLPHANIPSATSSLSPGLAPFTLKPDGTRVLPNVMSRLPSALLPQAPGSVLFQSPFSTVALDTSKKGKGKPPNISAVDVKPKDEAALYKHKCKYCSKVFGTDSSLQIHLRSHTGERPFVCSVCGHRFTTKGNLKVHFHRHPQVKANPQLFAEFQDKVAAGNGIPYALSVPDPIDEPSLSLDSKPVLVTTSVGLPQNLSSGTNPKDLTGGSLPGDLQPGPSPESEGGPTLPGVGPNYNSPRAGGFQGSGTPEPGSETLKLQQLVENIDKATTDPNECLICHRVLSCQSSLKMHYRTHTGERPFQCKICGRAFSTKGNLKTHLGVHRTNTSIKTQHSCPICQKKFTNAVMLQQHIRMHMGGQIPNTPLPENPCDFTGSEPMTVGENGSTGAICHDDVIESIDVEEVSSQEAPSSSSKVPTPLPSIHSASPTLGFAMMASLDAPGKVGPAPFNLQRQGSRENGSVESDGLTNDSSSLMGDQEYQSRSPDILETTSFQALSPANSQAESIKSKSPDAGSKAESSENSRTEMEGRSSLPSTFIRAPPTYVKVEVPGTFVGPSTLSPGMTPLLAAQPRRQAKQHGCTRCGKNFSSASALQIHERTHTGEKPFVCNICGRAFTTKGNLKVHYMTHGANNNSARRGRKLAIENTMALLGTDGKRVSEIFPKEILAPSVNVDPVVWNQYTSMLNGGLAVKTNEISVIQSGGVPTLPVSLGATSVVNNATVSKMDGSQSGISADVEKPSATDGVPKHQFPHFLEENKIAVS
Technique: universal PBM
Form: double-stranded DNA, one strand shown
Matrix: in vitro
Concentration: 600 nM
Setting: 8-mer, flanks averaged, mean of replicates
Reading: higher = stronger binding
Sequence | E-score
CTATTGAC | 0.11
CCGAACCA | -0.11
CTGGAGCC | -0.287
CTCCGTTC | -0.15
CAGAAATC | 0.0542
CACGGTGG | -0.225
AGAAGCGG | -0.243
CGGTAAGA | -0.0847
ATAGATCA | 0.243

Set 3
Target: CCND2, cyclin fold, Cln2 fusion (human)
Technique: yeast growth competition, sequencing
Matrix: yeast
Setting: weak parent motif
Relative to: not given
Reading: higher = stronger binding
Parent: CDC6 docking peptide (human); TLKGRRLVFDNQL; partner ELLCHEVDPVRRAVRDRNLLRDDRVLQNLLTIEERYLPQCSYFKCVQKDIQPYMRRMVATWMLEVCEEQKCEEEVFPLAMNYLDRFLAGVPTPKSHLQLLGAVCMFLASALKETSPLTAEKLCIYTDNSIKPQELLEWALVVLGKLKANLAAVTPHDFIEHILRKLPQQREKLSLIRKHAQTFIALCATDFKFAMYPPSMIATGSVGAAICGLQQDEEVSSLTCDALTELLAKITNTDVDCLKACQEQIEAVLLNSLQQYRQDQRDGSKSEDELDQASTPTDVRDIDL
Variant | normalised enrichment score
MLKGRRLVFDNQL [T1M] | 0.0249
TLKGRTLVFDNQL [R6T] | 0.109
GLKGRRLVFDNQL [T1G] | 0.319
TLKGRQLVFDNQL [R6Q] | 0.419
TDKGRRLVFDNQL [L2D] | -0.0154
TSKGRRLVFDNQL [L2S] | -0.157

Other studies, line by line
Substance | target | test | test system | setting | how to read | quantity | result
PhoQ, residues 284 288 289 292 302 303 AANNSF | PhoP, residues 12 14 15 18 19 AWHSL (Escherichia coli, UniProt P23836) | Sort-seq, measured: YFP reporter | E. coli | PhoQ-PhoP variant library, added: 10 µM Mg2+ | relative to: high Mg2+ state, higher = stronger signaling | fold induction | 1.15

Some of these lines once more (set 2):
Sequence | E-score
CTGGAGCC | -0.287
CTCCGTTC | -0.15
CAGAAATC | 0.0542
CACGGTGG | -0.225
